Published values of several laboratories.
Each numbered part is a random draw from the data of one study; scales do not carry over between parts.
Chain of UniProt P36897 (whole entry, looked up): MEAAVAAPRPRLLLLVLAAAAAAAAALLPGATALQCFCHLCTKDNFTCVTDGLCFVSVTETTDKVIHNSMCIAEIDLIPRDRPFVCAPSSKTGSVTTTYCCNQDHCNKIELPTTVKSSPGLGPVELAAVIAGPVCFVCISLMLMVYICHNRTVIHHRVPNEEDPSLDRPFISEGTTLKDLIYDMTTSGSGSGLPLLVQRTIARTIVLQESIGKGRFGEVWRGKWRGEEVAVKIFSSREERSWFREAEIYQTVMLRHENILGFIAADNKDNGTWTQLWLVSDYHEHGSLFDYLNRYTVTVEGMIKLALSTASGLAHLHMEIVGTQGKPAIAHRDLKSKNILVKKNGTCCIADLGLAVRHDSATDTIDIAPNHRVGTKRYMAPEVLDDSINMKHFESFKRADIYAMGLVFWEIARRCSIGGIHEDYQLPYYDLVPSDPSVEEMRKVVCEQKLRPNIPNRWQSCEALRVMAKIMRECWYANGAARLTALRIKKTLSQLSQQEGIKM
Chain of UniProt P11802 (whole entry, looked up): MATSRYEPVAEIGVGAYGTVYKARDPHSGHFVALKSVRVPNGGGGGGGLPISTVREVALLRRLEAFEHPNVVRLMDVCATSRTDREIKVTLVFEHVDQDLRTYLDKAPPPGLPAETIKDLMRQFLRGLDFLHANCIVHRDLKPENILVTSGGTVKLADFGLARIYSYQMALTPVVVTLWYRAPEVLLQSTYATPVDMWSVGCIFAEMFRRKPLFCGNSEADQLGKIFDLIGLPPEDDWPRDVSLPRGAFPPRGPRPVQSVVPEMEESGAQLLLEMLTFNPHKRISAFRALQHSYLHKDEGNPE
Chain of UniProt P37173 (whole entry, looked up): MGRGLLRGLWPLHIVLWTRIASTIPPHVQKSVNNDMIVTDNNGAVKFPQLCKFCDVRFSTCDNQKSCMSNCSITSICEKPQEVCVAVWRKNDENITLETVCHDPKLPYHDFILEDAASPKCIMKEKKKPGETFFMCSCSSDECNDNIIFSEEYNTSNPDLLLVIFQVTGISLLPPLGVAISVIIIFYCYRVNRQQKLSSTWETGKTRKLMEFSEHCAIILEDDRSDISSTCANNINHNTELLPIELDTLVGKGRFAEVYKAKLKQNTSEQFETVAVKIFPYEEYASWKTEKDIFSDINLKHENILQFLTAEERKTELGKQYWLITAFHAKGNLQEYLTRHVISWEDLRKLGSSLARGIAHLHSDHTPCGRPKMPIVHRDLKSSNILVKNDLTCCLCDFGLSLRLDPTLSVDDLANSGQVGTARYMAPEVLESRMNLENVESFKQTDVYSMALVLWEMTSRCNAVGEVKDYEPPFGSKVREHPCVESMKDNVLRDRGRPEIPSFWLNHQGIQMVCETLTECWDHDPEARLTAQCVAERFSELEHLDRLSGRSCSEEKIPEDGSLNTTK
Chain of UniProt Q15831 (whole entry, looked up): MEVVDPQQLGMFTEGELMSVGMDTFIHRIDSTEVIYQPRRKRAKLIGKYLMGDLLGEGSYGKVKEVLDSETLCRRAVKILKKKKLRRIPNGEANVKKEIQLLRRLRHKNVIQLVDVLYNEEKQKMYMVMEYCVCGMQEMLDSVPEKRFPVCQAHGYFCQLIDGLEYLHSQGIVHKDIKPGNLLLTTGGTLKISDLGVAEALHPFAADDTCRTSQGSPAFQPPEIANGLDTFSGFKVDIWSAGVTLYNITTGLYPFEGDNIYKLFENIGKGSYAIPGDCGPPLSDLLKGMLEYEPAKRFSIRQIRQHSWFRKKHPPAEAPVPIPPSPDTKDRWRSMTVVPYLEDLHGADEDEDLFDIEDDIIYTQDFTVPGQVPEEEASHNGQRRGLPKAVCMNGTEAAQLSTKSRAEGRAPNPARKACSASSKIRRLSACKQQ

Series 1 — effect on: enzyme activity; action: inhibitor; concentration: 77 µM
Target: DNA polymerase theta, ATPase domain (POLQ, Homo sapiens, UniProt O75417)
Chain of UniProt O75417 (whole entry, unmodified, looked up): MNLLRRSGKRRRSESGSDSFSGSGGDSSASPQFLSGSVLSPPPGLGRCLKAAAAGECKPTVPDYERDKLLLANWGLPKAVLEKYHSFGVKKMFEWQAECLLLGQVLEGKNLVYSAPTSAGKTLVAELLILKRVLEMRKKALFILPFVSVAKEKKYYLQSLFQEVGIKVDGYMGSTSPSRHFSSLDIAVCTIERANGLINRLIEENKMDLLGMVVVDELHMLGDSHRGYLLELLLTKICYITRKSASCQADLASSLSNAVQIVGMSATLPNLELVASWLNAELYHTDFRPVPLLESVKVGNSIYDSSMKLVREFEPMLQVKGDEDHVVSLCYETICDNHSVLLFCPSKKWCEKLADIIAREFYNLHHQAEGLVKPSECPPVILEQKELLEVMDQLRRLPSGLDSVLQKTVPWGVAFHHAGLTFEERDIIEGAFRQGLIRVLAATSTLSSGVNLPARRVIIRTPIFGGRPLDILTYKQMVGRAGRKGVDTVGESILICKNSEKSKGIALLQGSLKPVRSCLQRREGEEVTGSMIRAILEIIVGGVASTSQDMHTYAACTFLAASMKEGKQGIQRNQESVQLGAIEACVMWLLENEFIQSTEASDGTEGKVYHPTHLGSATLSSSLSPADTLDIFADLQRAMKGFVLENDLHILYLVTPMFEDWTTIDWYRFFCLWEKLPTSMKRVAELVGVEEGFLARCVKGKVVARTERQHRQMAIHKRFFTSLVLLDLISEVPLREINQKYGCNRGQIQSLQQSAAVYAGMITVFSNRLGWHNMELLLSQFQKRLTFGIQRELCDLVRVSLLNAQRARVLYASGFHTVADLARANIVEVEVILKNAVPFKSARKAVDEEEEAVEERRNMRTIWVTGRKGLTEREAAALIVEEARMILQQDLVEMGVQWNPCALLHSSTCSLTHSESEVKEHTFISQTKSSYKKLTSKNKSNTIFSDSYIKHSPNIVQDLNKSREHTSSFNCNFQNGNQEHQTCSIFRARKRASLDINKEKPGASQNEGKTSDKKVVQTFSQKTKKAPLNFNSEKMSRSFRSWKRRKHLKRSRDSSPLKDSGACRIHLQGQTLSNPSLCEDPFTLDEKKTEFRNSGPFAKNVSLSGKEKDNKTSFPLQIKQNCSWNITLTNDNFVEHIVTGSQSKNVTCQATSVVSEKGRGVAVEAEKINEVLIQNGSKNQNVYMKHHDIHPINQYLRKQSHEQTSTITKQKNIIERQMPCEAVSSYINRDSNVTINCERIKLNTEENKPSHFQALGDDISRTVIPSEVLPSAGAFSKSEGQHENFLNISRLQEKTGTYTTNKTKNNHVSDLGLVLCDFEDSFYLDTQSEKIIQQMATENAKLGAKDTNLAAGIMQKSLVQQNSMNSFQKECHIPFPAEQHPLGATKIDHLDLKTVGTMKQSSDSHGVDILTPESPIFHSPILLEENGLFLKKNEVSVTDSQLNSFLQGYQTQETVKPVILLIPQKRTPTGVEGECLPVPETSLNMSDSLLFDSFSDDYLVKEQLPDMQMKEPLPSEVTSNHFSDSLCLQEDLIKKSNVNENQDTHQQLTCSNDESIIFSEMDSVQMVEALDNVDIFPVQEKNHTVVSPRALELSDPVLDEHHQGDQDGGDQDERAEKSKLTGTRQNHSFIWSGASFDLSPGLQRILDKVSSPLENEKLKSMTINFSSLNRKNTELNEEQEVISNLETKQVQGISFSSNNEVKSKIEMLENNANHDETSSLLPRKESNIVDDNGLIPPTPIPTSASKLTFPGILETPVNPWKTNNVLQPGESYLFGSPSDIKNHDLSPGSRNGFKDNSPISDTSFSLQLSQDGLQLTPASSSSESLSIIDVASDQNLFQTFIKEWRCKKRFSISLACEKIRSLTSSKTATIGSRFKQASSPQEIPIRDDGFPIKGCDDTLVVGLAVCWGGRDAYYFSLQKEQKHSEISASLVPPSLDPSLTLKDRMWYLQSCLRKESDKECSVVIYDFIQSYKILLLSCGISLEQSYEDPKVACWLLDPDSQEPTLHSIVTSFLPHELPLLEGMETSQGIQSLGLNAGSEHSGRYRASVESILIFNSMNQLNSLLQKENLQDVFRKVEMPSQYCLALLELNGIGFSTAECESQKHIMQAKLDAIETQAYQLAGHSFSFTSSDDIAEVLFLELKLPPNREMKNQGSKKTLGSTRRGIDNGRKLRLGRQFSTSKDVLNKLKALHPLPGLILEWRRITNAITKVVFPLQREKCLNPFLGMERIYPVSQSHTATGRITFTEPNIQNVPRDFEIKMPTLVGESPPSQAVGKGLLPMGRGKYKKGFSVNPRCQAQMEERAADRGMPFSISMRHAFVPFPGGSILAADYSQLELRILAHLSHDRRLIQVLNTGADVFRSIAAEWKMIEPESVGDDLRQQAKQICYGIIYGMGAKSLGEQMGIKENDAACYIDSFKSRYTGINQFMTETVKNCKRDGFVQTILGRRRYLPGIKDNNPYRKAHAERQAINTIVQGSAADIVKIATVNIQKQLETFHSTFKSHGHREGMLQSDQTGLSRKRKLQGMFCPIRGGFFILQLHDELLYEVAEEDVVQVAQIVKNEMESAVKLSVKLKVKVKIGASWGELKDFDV
| SMILES | remaining activity [%] |
| --- | --- |
| CN1CC[C@@]2(C)c3cc(O)ccc3N(C)[C@@H]12 | 103 |
| C[C@]12CC[C@H]3[C@@H](CC[C@]4(O)C[C@@H](O)CC[C@]34C=O)[C@@]1(O)CC[C@@H]2C1=CC(=O)OC1 | 101 |
| CN(C)C(=O)Oc1cc(OC(=O)N(C)C)cc(C(O)CNC(C)(C)C)c1 (stereo not drawn) | 97.8 |
| C1=C2CCCN[C@H]2[C@@H]2C[C@H]1[C@H]1CCCCN1C2 | 102 |
| S=C(NC1CCCCC1)N1CCC(c2cnc[nH]2)CC1 | 102 |
| CCCN1CCC[C@@H]2Cc3n[nH]cc3C[C@H]21 | 101 |

Series 2 — cell line: HEK-293T/ACE2; concentration: concentration not given; time: 16 (unit not given); baseline: vehicle
| Structure (SMILES) | viability |
| --- | --- |
| C[N+]1(C)[C@@H]2CC[C@H]1C[C@@H](OC(=O)C(O)c1ccccc1)C2 (stereo partly drawn) | 99.6% |
| C[C@H](O)C(=O)Nc1c(I)c(C(=O)NC(CO)CO)c(I)c(C(=O)NC(CO)CO)c1I | 101% |
| COc1ccc(C(CN(C)C)C2(O)CCCCC2)cc1 (stereo not drawn) | 99.7% |
| CC1(C)O[C@@H]2C[C@H]3[C@@H]4C[C@H](F)C5=CC(=O)C=C[C@]5(C)[C@@]4(F)[C@@H](O)C[C@]3(C)[C@]2(C(=O)CO)O1 | 103% |
| CNC(=C[N+](=O)[O-])NCCSCc1csc(CN(C)C)n1 | 99.4% |
| CCCOc1ccc(C(=O)OCCN(CC)CC)cc1N | 99.1% |

Series 3 — effect on: enzyme activity; action: inhibitor; concentration: 0.5 µM; baseline: control
Compound: COC[C@H]1OC(=O)c2coc3c2[C@@]1(C)C1=C(C3=O)[C@@H]2CCC(=O)[C@@]2(C)C[C@H]1OC(C)=O
| target | remaining activity |
| --- | --- |
| CHEK2 (Homo sapiens, UniProt O96017) | 95.6% |
| TGFBR2 (Homo sapiens, UniProt P37173) | 104% |
| Cyclin-dependent kinase 4, with cyclin D1 (CDK4, Homo sapiens, UniProt P11802) | 94.8% |
| TGFBR1 (Homo sapiens, UniProt P36897) | 93.8% |
| STK11 (Homo sapiens, UniProt Q15831) | 83.5% |
| PRKCA (Homo sapiens, UniProt P17252) | 96.3% |
| IKBKE (Homo sapiens, UniProt Q14164) | 98% |
| IKBKB (Homo sapiens, UniProt O14920) | 96.9% |
| STK39 (Homo sapiens, UniProt Q9UEW8) | 96.5% |
| MAP3K3 (Homo sapiens, UniProt Q99759) | 108% |
| STK10 (Homo sapiens, UniProt O94804) | 87.3% |
| OXSR1 (Homo sapiens, UniProt O95747) | 99.6% |

Series 4 — species: mouse; medium: microsomes or S9; concentration: 2 µM; time: 0.5 h
| SMILES | remaining compound [%] |
| --- | --- |
| COc1cc(C(=O)Nc2c(C)cc(Cl)cc2C(=O)NC(C)C)n(-c2ncccc2Cl)n1 | > 100 |
| Cn1ccn2ncc(C(=O)N[C@H]3COC[C@@H]3N3CCCCC3)c12 | 56 |
| CC(C)(C)c1cc(-n2c(=O)[nH]c3ccccc3c2=O)no1 | 61.7 |

Excerpt of the above (series 4):
| SMILES | remaining compound [%] |
| --- | --- |
| Cn1ccn2ncc(C(=O)N[C@H]3COC[C@@H]3N3CCCCC3)c12 | 56 |
| CC(C)(C)c1cc(-n2c(=O)[nH]c3ccccc3c2=O)no1 | 61.7 |
